Assay results pooled from the literature.
A part holds a random share of what one study measured.
Chain of UniProt P21709 (whole entry, looked up): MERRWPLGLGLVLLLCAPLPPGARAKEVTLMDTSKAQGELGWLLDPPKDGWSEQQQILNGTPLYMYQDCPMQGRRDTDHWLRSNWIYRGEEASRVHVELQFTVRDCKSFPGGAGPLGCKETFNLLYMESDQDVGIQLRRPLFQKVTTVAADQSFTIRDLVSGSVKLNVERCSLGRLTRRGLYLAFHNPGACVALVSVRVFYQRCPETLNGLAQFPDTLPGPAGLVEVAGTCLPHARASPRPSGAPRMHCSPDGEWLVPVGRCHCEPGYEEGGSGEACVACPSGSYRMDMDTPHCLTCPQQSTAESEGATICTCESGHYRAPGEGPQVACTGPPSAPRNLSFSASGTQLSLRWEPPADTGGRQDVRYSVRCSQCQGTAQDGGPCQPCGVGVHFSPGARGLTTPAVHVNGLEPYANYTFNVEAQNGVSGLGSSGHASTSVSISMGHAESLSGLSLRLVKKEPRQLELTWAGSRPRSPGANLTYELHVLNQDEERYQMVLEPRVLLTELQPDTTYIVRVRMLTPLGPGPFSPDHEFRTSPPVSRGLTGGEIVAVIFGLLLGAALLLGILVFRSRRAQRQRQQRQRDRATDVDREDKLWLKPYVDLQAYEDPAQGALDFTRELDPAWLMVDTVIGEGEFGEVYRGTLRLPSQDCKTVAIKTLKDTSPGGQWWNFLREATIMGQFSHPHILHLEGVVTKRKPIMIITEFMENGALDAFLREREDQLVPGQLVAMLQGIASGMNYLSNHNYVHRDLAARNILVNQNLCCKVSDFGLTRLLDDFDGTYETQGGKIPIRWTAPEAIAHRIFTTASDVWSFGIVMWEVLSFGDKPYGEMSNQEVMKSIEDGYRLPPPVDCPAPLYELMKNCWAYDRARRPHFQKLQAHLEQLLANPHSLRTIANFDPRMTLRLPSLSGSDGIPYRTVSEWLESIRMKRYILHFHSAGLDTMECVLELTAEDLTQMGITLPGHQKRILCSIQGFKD
Chain of UniProt P42680 (whole entry, looked up): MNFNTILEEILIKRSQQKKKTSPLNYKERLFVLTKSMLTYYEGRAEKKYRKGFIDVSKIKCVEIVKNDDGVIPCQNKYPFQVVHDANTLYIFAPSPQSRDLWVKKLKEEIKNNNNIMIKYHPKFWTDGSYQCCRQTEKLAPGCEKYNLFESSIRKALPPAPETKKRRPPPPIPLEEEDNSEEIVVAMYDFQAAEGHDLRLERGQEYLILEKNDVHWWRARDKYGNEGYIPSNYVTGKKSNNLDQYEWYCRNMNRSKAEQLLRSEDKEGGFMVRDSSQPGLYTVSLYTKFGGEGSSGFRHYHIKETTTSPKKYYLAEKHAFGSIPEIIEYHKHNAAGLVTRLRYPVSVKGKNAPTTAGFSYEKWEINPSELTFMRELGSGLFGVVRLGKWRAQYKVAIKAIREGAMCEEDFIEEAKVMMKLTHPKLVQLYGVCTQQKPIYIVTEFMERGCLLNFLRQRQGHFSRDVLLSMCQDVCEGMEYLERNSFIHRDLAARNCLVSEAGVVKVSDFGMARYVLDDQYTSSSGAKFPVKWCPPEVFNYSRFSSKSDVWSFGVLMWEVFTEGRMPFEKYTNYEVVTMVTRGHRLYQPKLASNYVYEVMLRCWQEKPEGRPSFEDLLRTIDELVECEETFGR
Chain of UniProt O14976 (whole entry, looked up): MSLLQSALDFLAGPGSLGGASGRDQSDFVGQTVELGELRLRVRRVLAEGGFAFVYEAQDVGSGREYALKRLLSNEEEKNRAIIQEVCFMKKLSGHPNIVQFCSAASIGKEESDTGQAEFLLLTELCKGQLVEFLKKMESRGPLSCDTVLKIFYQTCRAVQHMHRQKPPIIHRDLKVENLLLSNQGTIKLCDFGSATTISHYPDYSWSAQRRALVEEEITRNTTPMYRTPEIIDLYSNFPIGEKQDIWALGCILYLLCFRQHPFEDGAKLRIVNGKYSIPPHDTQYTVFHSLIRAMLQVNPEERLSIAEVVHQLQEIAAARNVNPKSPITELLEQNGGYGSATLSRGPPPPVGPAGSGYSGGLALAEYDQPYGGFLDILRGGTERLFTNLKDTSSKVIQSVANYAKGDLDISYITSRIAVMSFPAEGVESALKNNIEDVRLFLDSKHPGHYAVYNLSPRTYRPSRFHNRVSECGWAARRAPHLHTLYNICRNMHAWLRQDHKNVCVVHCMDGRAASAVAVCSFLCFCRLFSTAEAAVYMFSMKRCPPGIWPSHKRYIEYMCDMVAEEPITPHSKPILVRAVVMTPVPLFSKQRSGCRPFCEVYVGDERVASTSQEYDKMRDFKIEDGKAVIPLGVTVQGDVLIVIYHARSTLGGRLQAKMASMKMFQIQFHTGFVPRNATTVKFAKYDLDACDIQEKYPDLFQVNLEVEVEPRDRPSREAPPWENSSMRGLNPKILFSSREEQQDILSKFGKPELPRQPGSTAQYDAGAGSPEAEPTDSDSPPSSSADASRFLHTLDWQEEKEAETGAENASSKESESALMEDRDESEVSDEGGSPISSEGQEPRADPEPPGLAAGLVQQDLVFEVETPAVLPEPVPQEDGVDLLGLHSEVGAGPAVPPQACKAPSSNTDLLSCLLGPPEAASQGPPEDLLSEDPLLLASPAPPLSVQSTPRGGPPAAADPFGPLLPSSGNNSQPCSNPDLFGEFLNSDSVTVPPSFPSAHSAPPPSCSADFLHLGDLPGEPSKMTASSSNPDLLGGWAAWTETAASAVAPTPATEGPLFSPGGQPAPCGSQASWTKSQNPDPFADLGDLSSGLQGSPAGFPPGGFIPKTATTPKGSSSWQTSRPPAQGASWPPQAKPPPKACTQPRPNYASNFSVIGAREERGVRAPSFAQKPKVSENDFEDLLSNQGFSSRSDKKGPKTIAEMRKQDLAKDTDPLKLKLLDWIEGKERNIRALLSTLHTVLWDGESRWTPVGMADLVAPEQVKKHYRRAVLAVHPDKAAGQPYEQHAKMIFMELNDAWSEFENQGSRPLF
Chain of UniProt Q9HBY8 (whole entry, looked up): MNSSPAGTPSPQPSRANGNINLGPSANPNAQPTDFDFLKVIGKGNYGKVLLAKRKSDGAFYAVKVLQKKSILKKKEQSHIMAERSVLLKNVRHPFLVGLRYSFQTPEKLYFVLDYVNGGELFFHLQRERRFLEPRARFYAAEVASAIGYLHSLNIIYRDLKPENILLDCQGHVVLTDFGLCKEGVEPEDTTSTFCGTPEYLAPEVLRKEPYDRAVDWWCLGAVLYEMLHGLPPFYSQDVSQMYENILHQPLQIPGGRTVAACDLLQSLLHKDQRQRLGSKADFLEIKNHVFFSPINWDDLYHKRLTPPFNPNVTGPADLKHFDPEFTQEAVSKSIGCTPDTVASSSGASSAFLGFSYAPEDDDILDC
Chain of UniProt P19525 (whole entry, looked up): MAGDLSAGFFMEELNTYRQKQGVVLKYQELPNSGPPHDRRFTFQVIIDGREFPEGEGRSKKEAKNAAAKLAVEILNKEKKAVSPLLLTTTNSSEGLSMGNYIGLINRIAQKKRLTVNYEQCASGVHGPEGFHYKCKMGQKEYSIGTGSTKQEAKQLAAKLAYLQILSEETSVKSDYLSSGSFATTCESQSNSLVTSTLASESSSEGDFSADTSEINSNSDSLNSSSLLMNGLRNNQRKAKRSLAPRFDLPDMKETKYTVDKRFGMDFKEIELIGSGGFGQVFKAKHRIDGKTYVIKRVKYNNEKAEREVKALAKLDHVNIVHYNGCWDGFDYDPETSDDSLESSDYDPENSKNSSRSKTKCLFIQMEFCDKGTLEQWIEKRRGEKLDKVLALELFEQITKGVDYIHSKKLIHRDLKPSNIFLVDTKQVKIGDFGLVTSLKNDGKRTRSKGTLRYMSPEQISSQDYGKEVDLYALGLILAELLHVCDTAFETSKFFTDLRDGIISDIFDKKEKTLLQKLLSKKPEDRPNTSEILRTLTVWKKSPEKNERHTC
Chain of UniProt O43293 (whole entry, looked up): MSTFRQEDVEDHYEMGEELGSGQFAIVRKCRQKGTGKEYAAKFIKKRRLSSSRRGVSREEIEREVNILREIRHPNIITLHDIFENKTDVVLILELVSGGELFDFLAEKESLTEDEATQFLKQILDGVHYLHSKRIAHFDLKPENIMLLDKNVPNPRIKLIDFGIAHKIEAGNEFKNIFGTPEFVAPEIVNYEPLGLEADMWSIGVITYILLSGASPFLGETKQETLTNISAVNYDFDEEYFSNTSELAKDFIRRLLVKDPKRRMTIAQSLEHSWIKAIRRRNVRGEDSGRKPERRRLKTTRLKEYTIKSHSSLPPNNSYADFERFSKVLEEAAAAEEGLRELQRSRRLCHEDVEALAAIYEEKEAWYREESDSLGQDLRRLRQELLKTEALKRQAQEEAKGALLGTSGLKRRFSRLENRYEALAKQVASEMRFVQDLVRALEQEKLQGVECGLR

Set 1
Species: mouse
Sample: microsomes or S9
Tested at: 2 µM
Time: 0.5 h
| Structure (SMILES) | remaining compound |
| --- | --- |
| CC(C)N(C(=O)CO/C(=C(/c1ccccc1)S(=O)(=O)c1ccccc1)c1ccccc1)c1ccccc1 | 5.06% |
| O=C1CC(c2ccc3c(c2)OCO3)CC2=C1C(c1ccncc1)Nc1ccccc1N2 (stereo not drawn) | 46.5% |
| Cc1nnc(C)n1/N=C/c1ccc(Br)cc1 | 85.8% |
| CC(C)(C)OC(=O)NCCNC(=O)Cc1cc(=O)oc2cc(O)ccc12 | 78% |
| Cc1nc(CCN2CC3(CCNCC3)CCC2=O)sc1Cl | 61.3% |
| Cc1nc2nc(CCc3ccccc3)nn2c(C)c1Cl | < 1% |
| Cc1cccc(C(=O)/N=c2\c(C)cccn2C(=O)c2cccc(C)c2)c1 | 88.1% |
| CCC[C@@H]1CN(c2ncnc3sccc23)C[C@H]1C(=O)O | 39.2% |

Set 2
Structure (SMILES): CCOCCn1cc(C(=O)Nc2ccc(-n3nc(-c4cccnc4)cc3C(F)(F)F)cn2)ccc1=O
Read-out: cell-free assay
Technique: competition with immobilised ligand
Tested at: 1 µM
| target | remaining binding [%] |
| --- | --- |
| Interferon-induced, double-stranded RNA-activated protein kinase (EIF2AK2, Homo sapiens, UniProt P19525) | 100 |
| Ephrin type-A receptor 1 (EPHA1, Homo sapiens, UniProt P21709) | 82 |
| Tyrosine-protein kinase JAK3, JH1 (JAK3, Homo sapiens, UniProt P52333) | 100 |
| Tyrosine-protein kinase Tec (TEC, Homo sapiens, UniProt P42680) | 100 |
| Serine/threonine-protein kinase Sgk2 (SGK2, Homo sapiens, UniProt Q9HBY8) | 100 |
| Receptor-type tyrosine-protein kinase FLT3 (FLT3, Homo sapiens, UniProt P36888, D835V) | 100 |
| Casein kinase I isoform epsilon (CSNK1E, Homo sapiens, UniProt P49674) | 100 |
| Tyrosine-protein kinase ABL1, phosphorylated (ABL1, Homo sapiens, UniProt P00519, Y253F) | 73 |
| Serine/threonine-protein kinase WNK4 (WNK4, Homo sapiens, UniProt Q96J92) | 91 |
| Cyclin-G-associated kinase (GAK, Homo sapiens, UniProt O14976) | 100 |
| Death-associated protein kinase 3 (DAPK3, Homo sapiens, UniProt O43293) | 91 |

Set 3
Cell line: Huh-7
Tested at: 10 µM
Time: 24 h
| SMILES | viability [%] |
| --- | --- |
| NC(N)=Nc1nc(CSCCC(N)=NS(N)(=O)=O)cs1 | 92.8 |
| C[C@]12CCC(=O)C=C1C=C[C@@H]1[C@@H]2CC[C@@]2(C)[C@H]1CC[C@@]21CCC(=O)O1 | 91.7 |
| Cc1cnc(NC(=O)C2=C(O)c3ccccc3S(=O)(=O)N2C)s1 | 100 |
| Cc1cc(=O)[nH]c(=S)[nH]1 | 95.1 |
| CN(C)[C@@H]1C(O)=C(C(N)=O)C(=O)[C@@]2(O)C(O)=C3C(=O)c4c(O)cccc4[C@@](C)(O)[C@H]3C[C@@H]12 | 94.5 |
| CCCCCCCCCCCCCCCC(=O)OC[C@@H](NC(=O)C(Cl)Cl)[C@H](O)c1ccc([N+](=O)[O-])cc1 | 92 |
| O=C(O)c1cc(O)c(O)c(O)c1 | 102 |
| C[C@@H]1O[C@@H]1P(=O)(O)O | 104 |
| COc1ccc(C(Cl)=C(c2ccc(OC)cc2)c2ccc(OC)cc2)cc1 | 97.8 |
| NCC(=O)CCC(=O)O | 102 |
| CC(=O)OCC1=C(C(=O)O)N2C(=O)[C@@H](NC(=O)CSc3ccncc3)[C@H]2SC1 | 107 |

Set 4
Target: Protein kinase C delta type (PRKCD, Homo sapiens, UniProt Q05655)
Chain of UniProt Q05655 (whole entry, looked up): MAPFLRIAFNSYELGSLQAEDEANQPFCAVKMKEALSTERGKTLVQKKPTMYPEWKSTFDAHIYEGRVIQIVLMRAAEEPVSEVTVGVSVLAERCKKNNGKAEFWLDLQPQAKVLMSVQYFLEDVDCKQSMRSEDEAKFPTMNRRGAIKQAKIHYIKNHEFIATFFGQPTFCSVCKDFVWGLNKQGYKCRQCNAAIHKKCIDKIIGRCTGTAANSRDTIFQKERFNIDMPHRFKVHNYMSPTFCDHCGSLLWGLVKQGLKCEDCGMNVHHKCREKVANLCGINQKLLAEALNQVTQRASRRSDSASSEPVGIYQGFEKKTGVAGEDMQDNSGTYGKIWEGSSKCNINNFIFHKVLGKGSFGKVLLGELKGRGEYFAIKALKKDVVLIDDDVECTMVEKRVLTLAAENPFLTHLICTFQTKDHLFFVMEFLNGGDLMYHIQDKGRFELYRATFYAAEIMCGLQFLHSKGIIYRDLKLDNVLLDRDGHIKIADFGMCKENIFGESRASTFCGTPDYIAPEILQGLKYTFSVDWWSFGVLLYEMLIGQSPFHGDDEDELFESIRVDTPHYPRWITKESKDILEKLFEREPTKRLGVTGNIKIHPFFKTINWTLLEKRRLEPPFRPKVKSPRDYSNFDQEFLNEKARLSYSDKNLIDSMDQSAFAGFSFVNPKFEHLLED
Read-out: enzyme activity
Action: inhibitor
Tested at: 0.5 µM
Baseline: control
| Compound | remaining activity [%] |
| --- | --- |
| Cn1nc2c3c(cccc31)C(=O)c1ccccc1-2 | 92.3 |
| Cc1nc2cc3nc(-c4cccs4)cnc3cc2n1C | 78.6 |
| CCN(CC)CCNC(=O)c1c(C)[nH]c(/C=C2\C(=O)Nc3ccc(F)cc32)c1C | 95.1 |
| C[C@@H]1CCN(C(=O)CC#N)C[C@@H]1N(C)c1ncnc2[nH]ccc12 | 75.3 |
| Cc1cc2ncc(-c3ccccc3)nc2cc1C | 92.3 |
| Nc1cccc(-c2cc3c(Oc4cccc(O)c4)ncnc3[nH]2)c1 | 95.7 |
| O=C(Nc1cccc(Nc2nccc(Nc3cccc(C(F)(F)F)c3)n2)c1)C1CC1 | 87.9 |
| c1ccc(-c2cnc(Nc3ccc(OCCN4CCCC4)cc3)s2)cc1 | 91.3 |
| Cc1cn(-c2cc(NC(=O)c3ccc(C)c(Nc4nccc(-c5cccnc5)n4)c3)cc(C(F)(F)F)c2)cn1 | 100 |
| c1ccc(-c2[nH]ncc2-c2ccnc3ccccc23)nc1 | 96.6 |
| COc1cc2ncnc(Nc3cccc(Cl)c3)c2cc1OC | 86.4 |
| CN(C)C[C@H]1CCn2c(c(C3=C(c4cn(C)c5ccccc45)C(=O)NC3=O)c3ccccc32)C1 | 8.11 |
